Measured values pooled from the literature.
Every numbered part comes from another study and shows a few of its results, in no order.

Series 1
Target: Phosphate system positive regulatory protein PHO4, full length, GST-tagged (PHO4, Saccharomyces cerevisiae, UniProt P07270, residues 1-312)
Technique: competition protein-binding microarray
Form: double-stranded DNA, one strand shown
Sample: in vitro
Concentration: 2 µM
Setting: whole 60-bp probe, lowest competitor level
With: Cbf1 competitor, 0.05 µM
Reading: higher = stronger binding
All sequences stand within: … GTCTTGATTCGCTTGACGCTGCTG
Residues (chain): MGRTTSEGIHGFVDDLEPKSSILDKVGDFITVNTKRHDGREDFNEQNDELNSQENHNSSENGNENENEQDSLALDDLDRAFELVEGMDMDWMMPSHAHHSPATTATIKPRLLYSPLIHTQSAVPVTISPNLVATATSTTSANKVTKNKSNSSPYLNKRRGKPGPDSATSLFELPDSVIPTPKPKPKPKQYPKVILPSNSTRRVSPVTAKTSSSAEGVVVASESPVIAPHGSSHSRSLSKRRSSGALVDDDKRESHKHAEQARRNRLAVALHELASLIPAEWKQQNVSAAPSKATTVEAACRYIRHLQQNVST
Oligonucleotide | fluorescence intensity
TCTGAACTAAAAAAAGGCGTGCCAGATACTATATAT | 9420 a.u.
CGTCCTAGTGATTGCGACGTGGGTGCCATGAGGAAG | 8500 a.u.
AACTGTTTCAGAACAAACGTGGTCGTCCCAAGAAGT | 11800 a.u.
ATCATGGATGCCCTTTCCGTGATGGGAGTAACGAGA | 3960 a.u.
CTTCTGTAAATTTGCCTAGTGGGTGGACGCGCCCCG | 4880 a.u.
GCTGAGTACTTTGGGGTCGTGATGGAGCTGTGCTAC | 7270 a.u.
ATGGCAACGAGGTCGCACACGCCAGACACCCAGACC | 7620 a.u.
TGCGCAACAACTTGGCGGGTGGGTGTATGTCTAGAA | 4340 a.u.
TTCAAGAAAAATCCACGCGTGTGGACCTTTTTTTTC | 7940 a.u.
TTATCAGTGCTAAAGCACGATCCAAGTGGTGGCACA | 7070 a.u.
CTTCTGTAAATTTGTCTAGTGGGTGGACGCGCCCCG | 3720 a.u.
GTCTTGTCTCATTGCGCCGTGGGTGTCCCCACTTCA | 6040 a.u.
TGCGCAACAACTTGGGTAGTGGGTGTATGTCTAGAA | 4980 a.u.
CTAACGAAGGTTTTTCACGTGCAGTACAAGCCAAGT | 13000 a.u.
GAGTGCTTGCAATATCACAGCGGTAGCTAGACTCGC | 3250 a.u.
CTTCATTTTGGGTGGCACATGGCAAAGCAATGTCGA | 11500 a.u.
TAGTAATGTGCAAGTGATGTGGCGAGATGGTCCTTT | 4880 a.u.
TGCGCAACAACTTGCCATGTGGGTGTATGTCTAGAA | 10800 a.u.
GGACATAAATGCTCGCGCATGACAGAGACTGGCCGG | 5820 a.u.

Series 2
Target: RNA binding protein fox-1 homolog 2, RRM domain, GST-SBP tag (RBFOX2, Homo sapiens, UniProt O43251-10, residues 100-194)
Technique: RNA Bind-n-Seq
Form: RNA
Sample: in vitro
Concentration: 365 nM
Setting: natural RNA segment, single round, ends assumed
Relative to: no-protein control
Reading: higher = stronger binding
All sequences stand within: GGGAGUUCUACAGUCCGACGAUC … UGGAAUUCUCGGGUGCCAA
Construct (chain): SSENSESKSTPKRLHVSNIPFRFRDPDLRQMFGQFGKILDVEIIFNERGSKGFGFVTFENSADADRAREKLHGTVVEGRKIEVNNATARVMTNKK
Oligonucleotide | RBNS enrichment (R)
CCCAGGCCCAGAUUAGCCACUCGUUAGCUGUGUGACUGACUCUGGGCUAGUCACCUGGCCCCUGUGUGCCCCGUGUUCAUCUGUGAAAGGAGGUAAAAAAAAAAAAAUAU | 0.372
UGUUUUAUAUUCUUUUGUAGUAAAACAACAUAACUCAGAUUUCUACAGGAGACAGUGGUUUUAUUCGGAUUGUCUUCUGUAAUAGGUUUCAAUAAAGCUGGAUGAACUUA | 0.276
UUCUGUAACCCAGGCUGGUCUUUGCUUUUACUGAACAUCCAAACGUUAUUUAUAUUUUAAUUUUAUGUACUCAUUUCUUUUUGUUUUCCUCAAACAGCAUGUUGUUGUUG | 4.13
UUCUCCUGUUUCAUCUGGGUCAGUUUGGCCAUAAUUCUGGGGUCAGGCCAGGCCUGGGUCCUGCCCUCCCAUGGGGUGACUCAUGACCCCUCCAGCCAGGACUCUCCUAC | 0.239
CUUACUUUCAUUGUAAAUAAGCCUGUCUUCCUAUCUGGAUUUUUUGUGUGCAUACAUAUUCUACUGAUUAACUACUUUUGCAGUUUUAAUCCUGUAUUAUUUCUUCUACU | 0.801
CCACAAUUGUAGGAUUUUUUUUUCCAUGUACAUUCUUUGUAUAUGUUCAGAAGGGAUCAAAAUUGCCAUCUAACAGGUACCUUAAAGGAUUCCUGGGCAUCUACUUCCAC | 0.314
CUUAUAUUGGUGAGCAUGAGGGAGGAGGAAUCAUGGCUACCUUCUCCUGGCCCUGCGUUCUUAAUAUUGGGCUAUGGAGAGAUCCUCCUUUACCCUCUUGAAAUUUCUUA | 0.776
AGAAUGUGGUAUUGGCCCUGGCCUAGCCCCUUCCACUUCCCAUAAUUCUUGCCUCUUUCCAUAAUUCAUGGUUUCAGUUCGACUUUGUAUAUAAAGUUGUUUGUUGGUUU | 0.255

Series 3
Target: Prothrombin, mature alpha-thrombin (F2, Homo sapiens, UniProt P00734)
Technique: aptamer microarray, sandwich
Form: DNA with 2'F-ANA
Sample: in vitro
Concentration: 200 nM
Setting: whole 15-mer aptamer, many near background
With: Cy3 exosite-II aptamer, 400 nM
Reading: higher = stronger binding
Oligonucleotide: GGTTGGTGTGGTTGG
Modification | mean fluorescence intensity [a.u.]
2'F-ANA at 1 2 3 5 8 10 11 14 15 | 48.8
2'F-ANA at 1 2 3 6 7 8 12 13 14 | 91.4
2'F-ANA at 1 2 4 5 7 11 12 13 15 | 69.8
2'F-ANA at 1 2 3 5 | 59.5
2'F-ANA at 1 4 8 9 11 12 14 15 | 56.2
2'F-ANA at 1 3 4 5 6 8 10 11 12 14 15 | 48.1
2'F-ANA at 1 2 3 5 6 8 11 12 14 | 49.9
2'F-ANA at 2 3 5 7 8 10 11 14 | 49.2
2'F-ANA at 2 7 8 9 13 14 | 154
2'F-ANA at 5 6 7 9 11 13 14 | 108
2'F-ANA at 1 3 4 13 14 | 66.4
2'F-ANA at 1 2 3 4 6 7 8 11 12 13 14 15 | 68.6
2'F-ANA at 2 3 4 5 9 10 13 15 | 60.1
2'F-ANA at 1 3 7 9 10 11 13 15 | 79.5
2'F-ANA at 2 7 10 11 12 13 14 15 | 91.3
2'F-ANA at 2 3 4 6 8 10 13 14 15 | 131
2'F-ANA at 1 3 6 7 9 11 12 | 368
2'F-ANA at 2 3 5 9 10 11 14 | 64.2
2'F-ANA at 3 4 5 6 8 10 11 12 13 15 | 61
2'F-ANA at 1 2 3 4 6 10 11 14 15 | 62.8
2'F-ANA at 5 7 9 10 11 12 13 14 15 | 49.2
2'F-ANA at 3 5 7 8 10 11 12 14 15 | 53.7
2'F-ANA at 1 2 3 4 5 8 9 12 13 14 | 49
2'F-ANA at 1 5 8 9 11 15 | 56.4

Series 4
Target: Histone acetyltransferase KAT6A, both winged helices, GST fusion (KAT6A, Homo sapiens, UniProt Q92794, residues 1-181)
Technique: protein binding microarray
Form: double-stranded DNA, one strand shown
Sample: in vitro
Concentration: not given
Setting: 8-mer, flanks averaged, mean of 2 arrays, mostly near background
Relative to: not given
Reading: higher = stronger binding
Residues (chain): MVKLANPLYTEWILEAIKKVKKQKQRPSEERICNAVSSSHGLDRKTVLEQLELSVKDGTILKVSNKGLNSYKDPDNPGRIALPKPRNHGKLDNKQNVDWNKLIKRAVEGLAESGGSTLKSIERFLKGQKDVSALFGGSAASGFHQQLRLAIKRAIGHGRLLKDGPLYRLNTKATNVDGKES
Oligonucleotide | E-score
TATCCCAA | -0.0758
AGTTAACA | -0.0104
CCGGCTCC | 0.0926
CTAACTGC | -0.131
GATCCCGA | 0.111
GTGTACCA | 0.0318
CGGGCCAG | 0.0425
CGCCCCGA | 0.178
TACACTAA | -0.0938
ACAACCAA | -0.156
CCCAAAGC | -0.0765
GTTCCAAA | -0.195
CGTTTCAG | 0.17
CCCTCAGG | -0.13
CAAACCGG | 0.1
ATTGGGCC | -0.00371
ACTTTGAC | -0.0123
GTGGCAAA | -0.116
AAGTCTCT | -0.277
AACCTTCT | -0.154
ACGGCGCC | 0.325
TCTTTACA | -0.136
GCCCCCGC | 0.24
AGGACACT | -0.171
AAAACATC | -0.168

Repeated from above (series 3):
Modification | mean fluorescence intensity [a.u.]
2'F-ANA at 3 5 7 8 10 11 12 14 15 | 53.7
2'F-ANA at 1 2 3 4 6 10 11 14 15 | 62.8
2'F-ANA at 1 4 8 9 11 12 14 15 | 56.2
2'F-ANA at 1 3 6 7 9 11 12 | 368
2'F-ANA at 1 2 4 5 7 11 12 13 15 | 69.8
2'F-ANA at 1 3 7 9 10 11 13 15 | 79.5
2'F-ANA at 1 2 3 5 8 10 11 14 15 | 48.8
2'F-ANA at 1 2 3 6 7 8 12 13 14 | 91.4
